Assay results from different studies.
A part holds a random share of what one study measured. Positions count from the first letter of the parent shown.

Set 1
Target: Histone acetyltransferase KAT6A, both winged helices, GST fusion (KAT6A, Homo sapiens, UniProt Q92794, residues 1-181)
Technique: protein binding microarray
Molecule type: double-stranded DNA, one strand shown
Matrix: in vitro
Concentration: not given
Notes: 8-mer, flanks averaged, mean of 2 arrays, mostly near background
Relative to: not given
Direction: higher = stronger binding
Target sequence (chain): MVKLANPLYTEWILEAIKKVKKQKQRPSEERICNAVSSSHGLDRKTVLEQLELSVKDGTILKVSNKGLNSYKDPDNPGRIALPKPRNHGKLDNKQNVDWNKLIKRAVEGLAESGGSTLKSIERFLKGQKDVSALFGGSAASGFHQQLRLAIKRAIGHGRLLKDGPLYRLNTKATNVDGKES
Oligonucleotide	E-score
AGTGGGGA	-0.21
CCATTTAG	-0.153
ATAACTCC	-0.0548
AAGCTATG	-0.066
GCTAGCCC	-0.123
GTGTGGGA	-0.0858
CAGCTCAG	-0.123
CGTCCCCC	0.0635
ACAGATAG	-0.281
AGAAGAAG	-0.128
CACAGAAG	-0.106
AACGCCGG	0.245
ATAATAAG	-0.12
TACCTGGA	-0.0672
ACTTGTGC	-0.106
CCAAGAAA	-0.184

Set 2
Target: Prothrombin, mature alpha-thrombin (F2, Homo sapiens, UniProt P00734)
Technique: aptamer microarray, sandwich
Molecule type: DNA with 2'F-ANA
Matrix: in vitro
Concentration: 200 nM
Notes: whole 15-mer aptamer, many near background
Added: Cy3 exosite-II aptamer, 400 nM
Direction: higher = stronger binding
Oligonucleotide: GGTTGGTGTGGTTGG
Modification	mean fluorescence intensity [a.u.]
2'F-ANA at 1 4 5 7 8 9 11 15	55.5
2'F-ANA at 2 6 7 8 11 12 13 14	162
2'F-ANA at 2 3 7 11 12 13 15	933
2'F-ANA at 5 6 7 8 9 10 11 12 13 14 15	53.3
2'F-ANA at 1 4 5 8 11 13	49.7
2'F-ANA at 1 3 5 7 8 9 10 12 13 14	49.5
2'F-ANA at 6 7 8 10 11 14 15	99.8
2'F-ANA at 1 2 5 9 10	46.5
2'F-ANA at 3 4 5 6 7 8 9 10 11 13 15	96.3
2'F-ANA at 1 2 3 6 7 8 11 12 13	341
2'F-ANA at 1 4 5 6 8 9 10	47.1
2'F-ANA at 2 6 8 10 12	167
2'F-ANA at 1 3 4 5 6 7 8 9 10 12 13 15	50
2'F-ANA at 1 5 11	51.3
2'F-ANA at 1 3 5 7 11 14 15	46.5
2'F-ANA at 1 4 5 7 8 11 13 14 15	52.5
2'F-ANA at 6 7 8 10 12 14 15	114
2'F-ANA at 1 2 4 5 6 8 13	52.7
2'F-ANA at 1 5 8 9 12 13 14	45.6
2'F-ANA at 4 9 11	300

Set 3
Target: Max dimerization protein 1, bHLH-zipper, MAX partner unstated (MXD1, Homo sapiens, UniProt Q05195, residues 56-136)
Technique: protein-binding microarray
Molecule type: double-stranded DNA, one strand shown
Matrix: in vitro
Concentration: not given
Notes: k-mer, scored over probes, only values ≥0.25
Direction: higher = stronger binding
Residues (chain): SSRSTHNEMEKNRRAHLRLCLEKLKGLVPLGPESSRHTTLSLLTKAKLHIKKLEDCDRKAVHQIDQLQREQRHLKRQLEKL
Oligonucleotide	E-score
CCCCGCAC	0.354
AGCGTGGG	0.352
ACATGGGG	0.438
CACATGAA	0.331
CACGTGCG	0.494
ACGTGAAT	0.268
CGTGGAAG	0.312
ACATGATC	0.359
CATGGTCG	0.32
ACGCGTGA	0.327
CACCATGA	0.288
CACGCCCC	0.337
CGCCCCAC	0.302
CACGCTCC	0.318
ACGAGGGG	0.334

Set 4
Target: RNA binding protein fox-1 homolog 2, RRM domain, GST-SBP tag (RBFOX2, Homo sapiens, UniProt O43251-10, residues 100-194)
Technique: RNA Bind-n-Seq
Molecule type: RNA
Matrix: in vitro
Concentration: 365 nM
Notes: natural RNA segment, single round, ends assumed
Relative to: no-protein control
Direction: higher = stronger binding
Constant ends, left off below: GGGAGUUCUACAGUCCGACGAUC … UGGAAUUCUCGGGUGCCAA
Target sequence (chain): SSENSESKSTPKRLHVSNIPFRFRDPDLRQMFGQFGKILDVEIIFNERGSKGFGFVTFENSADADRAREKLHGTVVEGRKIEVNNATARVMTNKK
Oligonucleotide	RBNS enrichment (R)
AUUCCUUAGAAGCAAGGACCUGGUCCAGUGGCGGUGCCUCAGUUCACACUCCCUCUGACGGACGGACGGACGUCAGUGCCCUCUCCCUUCUCCUUGUGAAGCCAUAAGCC	0.401
UGAAGUGAGUUAAUGAGCCUUCAUUAUUUUAAUGCUUAGUGUUUCAGUUUUAUAAGUGAAAAUUUUAUUUUAAAAAACAGUGGUUUUUUUUUUUGGGUAUGUCUGGAUCA	0.754
GCAGUGCGGCUUCAGGACGAAGCUCAGCCAGGGAGAGGGCGAUUAUAAUUGGGUAGUUUUGUUAAUAUUUUUUUAUCUUGUCCUUGAUAUUCCAAAAGUUACAGGAUAGA	0.83
CCAGUGCCCUCGGCAGAUGGGUGGCAGAAAGCAGGAGGAGGAAGAGGGAGCUGACCGAUGCCGGGUGUCUUACUCCGCUGAGAUCAGAACCUCCAACAUGCCGAGCAGAC	0.508
CCUUCUCCCGGCCCUCACUAAGCCCCGGCACUUCUAGUGGUCUCACCUGGAGGCAAGAGGGAGGGGACAGAGGCCCUGCCACGUCCCGCUGCCUCCUGCUCUCUGGAGGU	0.32
CCUAUAGCCUCUGCCACCUUGUAUAAACCCUGAUGUAUGCUAAGUGUUCUGGAUAUGAAUGUAUGUACACUGAUGCUGCCCCCCUCUGUACAGCGGCUUGGCCUCUCACG	2.51
AAAGAGAAUUUCUCUUAGUUUAGUUAGGUGUAAUUCAGUAGCUUUAAAUUCUCAGGUCAGAACAUAACAUUUCUCAUUUGUUAAAAGCAGCAAGAAGCCUGGUAAAACUG	0.314
AGACUUUGAAUCAUCGCUAUAUCAAGUAUCUAAAAUUUGGGAGGGUGAAUCAGUACACUGUGACCAAGGUCCUCAAAUUGGAAUUUGAACAACAAUGUAAAACCUGUUCU	0.298
CUGCUCAUGACCCCUGAGCAGCCUGCAAUGAGGUGUGUGUGCCCAGCCACUUGGCUGGGCAGGGAGAUAGAUAGCUUCUUCCUGCAAGCUUCCAGAAGCACGCUGUGUUC	0.801
UGGGGAUACAGCACCUGCUUCACCGCUGCCUCGUGUGUGUGAAGACCAAGGAGACCCCCAAGGGUACCACUGCCUGAGGACAGCAGAGAGAACCUGCCUCCCUCCCAGAA	0.496
AAAACCCAGGGUAUCUUCCCUCAGCAGCCUUCCAGCCGAGGACCAGAAAAGCUAUGAUUCCAUUAGAAGACUUCUGGAGGUCCCCAGAUCUUUGGAGUGUGGGAAUGGAA	0.322
CCAGGGUCAGAGCGCACAGCUUCAGGCAUCUCUGUCCACCAGCUAGCAGUGGAGAUGAAAUCAAGACCUUGCAAAAUGGAUACUAGGAGAUGAACAACAAUUCAACGUGC	0.404

Set 5
Target: Interferon regulatory factor 7, full length, phosphomimetic (IRF7, Homo sapiens, UniProt Q92985, residues 1-503, S101K/S471D/S472D/S475D/S476D/S477D/S483D/S484D/S487D)
Technique: protein-binding microarray
Molecule type: double-stranded DNA, one strand shown
Matrix: in vitro
Concentration: 250 nM
Notes: 60-bp whole probe
Added: salmon DNA 0.4 mg/ml
Relative to: random background probes
Direction: higher = stronger binding
Constant ends, left off below: GCCTAGCAC … GTCTTGATTCGCTTGACGCTGCTG
Construct (chain): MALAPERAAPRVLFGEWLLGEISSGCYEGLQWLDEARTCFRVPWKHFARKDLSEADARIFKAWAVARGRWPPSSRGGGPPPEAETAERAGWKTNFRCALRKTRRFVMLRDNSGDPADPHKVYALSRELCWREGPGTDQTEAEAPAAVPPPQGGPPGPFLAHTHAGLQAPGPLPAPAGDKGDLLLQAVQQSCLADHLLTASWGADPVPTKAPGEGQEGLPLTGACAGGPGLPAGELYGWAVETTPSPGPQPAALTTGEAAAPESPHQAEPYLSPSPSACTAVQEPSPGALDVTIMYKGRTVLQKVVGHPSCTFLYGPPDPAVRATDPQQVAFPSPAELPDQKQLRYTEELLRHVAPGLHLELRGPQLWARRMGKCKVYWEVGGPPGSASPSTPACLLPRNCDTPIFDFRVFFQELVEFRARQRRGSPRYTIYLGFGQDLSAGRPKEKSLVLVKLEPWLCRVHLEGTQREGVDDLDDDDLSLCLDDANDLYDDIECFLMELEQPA
Oligonucleotide	log fluorescence
TCATCTCTCTTTCCACTACTGTGCTAG	1.38 z-score
TTAGGACTGGTTCTCCTTTAGTGCTAG	1.4 z-score
TTAGGACTGGGTTGCGGTTAGTGCTAG	0.527 z-score
TTAGAACTGAGTCTCGCTTAGTGCTAG	0.601 z-score
TTAGGACAGGACTATCGGTTAGTGCTA	-0.219 z-score
TTAGGTCTCCTACTGCCTTAGTGCTAG	-0.253 z-score
TCATCTTTCCTTCTTGAACTGTGCTAG	1.54 z-score
GACGAACTAAGTTTCGAGACGTGCTAG	4.93 z-score
GACGGACTGGGACTGGGGTCGTGCTAG	-0.217 z-score
GGCGGTTTCGGTTTCGGGACGTGCTAG	14.1 z-score
TCAAATATGAGACTGGGACTGTGCTAG	0.0168 z-score
TTAGGTATGCTTCTCCTTTAGTGCTAG	0.385 z-score
GACGGTTTCCGGTATCGGGACGTGCTA	2.96 z-score
GACGATATCAGTTTCGAGAAGTGCTAG	1.89 z-score
GTCATTTACATTTTAGTAGTGTGCTAG	0.766 z-score
AATGCCCTCGGTTTACAGGGGTGCTAG	0.958 z-score
CTAGGTATCGGTTTCGGTTAGTGCTAG	10.8 z-score
TTAGGTCTCGGTTTCAGTTAGTGCTAG	7.15 z-score
AAAATGATTTTTTTCATATAGTGCTAG	0.679 z-score
GACGGTCTCCTTCTCCTTACGTGCTAG	-0.188 z-score

Set 6
Target: CCND3, cyclin fold, Cln2 fusion (human)
Technique: yeast growth competition, sequencing
Matrix: yeast
Notes: weak parent motif
Relative to: not given
Direction: higher = stronger binding
Starting sequence: FOXM1 docking peptide (human); PHLARPIKVESPP; partner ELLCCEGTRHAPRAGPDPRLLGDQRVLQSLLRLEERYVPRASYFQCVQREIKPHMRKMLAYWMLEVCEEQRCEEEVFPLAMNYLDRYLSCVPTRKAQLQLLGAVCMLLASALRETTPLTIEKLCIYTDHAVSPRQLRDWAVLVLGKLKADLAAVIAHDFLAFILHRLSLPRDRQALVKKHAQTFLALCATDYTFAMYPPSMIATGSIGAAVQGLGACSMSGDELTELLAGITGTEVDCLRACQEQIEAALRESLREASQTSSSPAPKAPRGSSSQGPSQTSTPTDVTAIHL
Substitution	normalised enrichment score
PHLARPIKAESPP [V9A]	-0.0115
PHLARPIKVESAP [P12A]	-0.772
PHLARPAKVESPP [I7A]	-0.322
PHAARPIKVESPP [L3A]	-0.0117
PHLAAPIKVESPP [R5A]	-0.215
PHLARPIKVESPA [P13A]	-0.0472

Mixed results
Molecule	target	assay	system	setting	how to read	measurement	value
PhoQ, residues 284 288 289 292 302 303 MLMVEA	PhoP, residues 12 14 15 18 19 SGWQI (Escherichia coli, UniProt P23836)	Sort-seq, measured: YFP reporter	E. coli	PhoQ-PhoP variant library, added: 10 µM Mg2+	relative to: high Mg2+ state, higher = stronger signaling	fold induction	4.44

A few entries again (set 2):
Modification	mean fluorescence intensity [a.u.]
2'F-ANA at 1 5 8 9 12 13 14	45.6
2'F-ANA at 4 9 11	300
2'F-ANA at 1 4 5 6 8 9 10	47.1
2'F-ANA at 2 6 8 10 12	167
2'F-ANA at 1 3 4 5 6 7 8 9 10 12 13 15	50
2'F-ANA at 2 6 7 8 11 12 13 14	162
